Assay results from different studies.
Each line is one published result; not all experiments were run side by side.
Target: Serine/threonine-protein kinase WNK4 (WNK4, Homo sapiens, UniProt Q96J92)

`CCN1CCN(Cc2ccc(NC(=O)c3ccc(C)c(NC(=O)c4cncc(-c5cnn(C)c5)c4)c3)cc2C(F)(F)F)CC1` has a remaining binding of 100% (binding, competition with immobilised ligand; 1 µM).
`COc1cc(Nc2nc(C)cc(-c3cnn4nc(OC)ccc34)n2)cc(C(F)(F)F)c1` has a remaining binding of 100% (binding, competition with immobilised ligand; 1 µM).
The remaining binding of `Cc1cnc2nc1Nc1cccc(c1)COC/C=C/COCc1cc(ccc1OCCN1CCOCC1)N2` is reported as 95% (binding, competition with immobilised ligand; 0.1 µM).
With `COc1c(Cl)cccc1Nc1c(-c2ccncc2C#C[C@@]2(C)CCCN2C(=O)/C=C/CN(C)C)[nH]c2c1C(=O)NCC2` the remaining binding was 75% (binding, competition with immobilised ligand; 3 µM).
`Nc1ncc2c(n1)-c1c([nH]c3ccc(C4=CCOCC4)cc13)CCC2` has a remaining binding of 100% (binding, competition with immobilised ligand; 1 µM).
For `CC(C)=CC1OC(C)(C)C2C=C3C(=O)C(Cl)=CC(O)C3C3C(O)C4OC4C(=O)C132` (stereo not shown), the remaining binding was 87% (cell-free assay, competition with immobilised ligand; 10 µM).
`O=C(Cc1ccc(OCc2ccccc2)cc1)NC1(C(=O)O)CCN(C(=O)c2ccc(-c3cccc(Cl)c3)cc2)CC1`: “activity vs control” 82% (enzyme activity, inhibitor; 10 µM).
The remaining binding of `COc1cc(Nc2nccc(-c3cnn4nc(OC)ccc34)n2)cc(C(F)(F)F)c1` is reported as 100% (binding, competition with immobilised ligand; 1 µM).
`C=CC(=O)N1CCCC(n2c(=O)c3ncccc3n(Cc3ccc(Oc4ccccc4)cc3)c2=O)C1` (stereo not shown) has a remaining binding of 66% (cell-free assay, competition with immobilised ligand; 1 µM).
For `CNC(=O)C1CCN(c2cc(C)c(F)cc2NC(=O)c2ccc(-c3cc(O)ccc3C)c(C)c2)CC1`, the remaining binding was 100% (binding, competition with immobilised ligand; 1 µM).

For quick reference, copied from above:
The remaining binding of `COc1cc(Nc2nccc(-c3cnn4nc(OC)ccc34)n2)cc(C(F)(F)F)c1` is reported as 100% (binding, competition with immobilised ligand; 1 µM).
